Earlier results as cited in several papers.
Protocols differ between the studies behind these lines. pIC50, pKi: −log10 of the molar value.

`Cc1cc(Nc2nccc(C)n2)cc(-c2cnc([C@@]3(O)CC[C@H](C(=O)O)C(C)(C)C3)s2)c1` gave a pIC50 of 7.00 (SRC; kinase panel).
The Km of `Nc1ncnc2c1ncn2[C@@H]1O[C@H](COP(=O)(O)OP(=O)(O)OP(=O)(O)O)[C@@H](O)[C@H]1O` is reported as 2000 µM (AsnA asparagine synthetase (Ligilactobacillus salivarius); substrate).
`CC[C@H](CC(=O)O)n1c(=O)c2ncccc2n(Cc2cn(C)c3cc(C)cc(C)c23)c1=O` has a pIC50 of 6.70 (CMA1; cellular activity).
For `C[C@@H](Oc1ccc(S(C)(=O)=O)cc1C(=O)N1C[C@@H]2C[C@]2(c2cc(C(F)(F)F)on2)C1)C(F)(F)F`, pharmacokinetic parameters read “no effect” (human, Phase I; Asian versus Caucasian participants).
With `CC(=O)N1CCC(c2ccc(C(=O)NC(=N)N)cc2C(F)(F)F)CC1` the pIC50 was 7.51 (SLC9A1; cellular activity).
Under activity class, `CC1CCN(CCCC(=O)c2ccc(F)cc2)CC1.Cl` is recorded as “inactive” (Toxoplasma gondii; parasite growth; concentration not given, published screen).
For `c1ccc(N2CCN(Cc3nc4ccccc4[nH]3)CC2)nc1`, the pKi was 7.20 (DRD4.4; biochemical).
`COC(=O)N[C@@H](C)CNc1nccc(-c2cn(C(C)C)nc2-c2cc(Cl)cc(NS(C)(=O)=O)c2F)n1` — result for “decrease in plasma exposure”: ~50% (human; day 15, multiple doses, autoinduction; relative to: day 1).

Some of these lines once more:
For `c1ccc(N2CCN(Cc3nc4ccccc4[nH]3)CC2)nc1`, the pKi was 7.20 (DRD4.4; biochemical).
